Experimental data from different studies.
Protocols differ between the studies behind these lines.
Cell line: HCT-116

`CCCCn1cc(C(=O)O)c(=O)c2cc(F)c3[nH]nnc3c21` gave an IC50 of 166 µM (cell growth or viability, SRB).
For `CSc1nc(Nc2ccc(/C(C)=N/NC(=O)c3ccc([N+](=O)[O-])cc3[N+](=O)[O-])cc2)c(C#N)c(-c2ccccc2)n1`, the viable cells was 78.6% (annexin V-FITC; 1.14 µM, 24 h).
`O=C(NCCc1cccc(F)c1)[C@@H]1C[C@@H](Sc2nc3ccccc3[nH]2)CN1Cc1cccc(Cl)c1` gave an IC50 of 15.2 µM (cell growth or viability, CCK-8; 24 h).
For `O=C(NCCNc1n[n+]([O-])c2ccccc2[n+]1[O-])C(F)(F)F`, “hypoxic cytotoxicity ratio” read 1.3 (baseline: normoxic IC50 over hypoxic IC50).
The viability of `N#Cc1c(NC(=O)CCl)sc2c1CCC(c1ccccc1)C2` (stereo not drawn) is reported as 65.5% (cell growth or viability, LDH; 100 µg/mL, 24 h).
`CCCCCCCCCCCCCCCC(=O)NCCCC[C@H](NC(=O)[C@H](CCCNC(=N)N)NC(=O)[C@H](CCCCNC(=O)CCCCCCCCCCCCCCC)NC(C)=O)C(=O)O` gave an inhibition of 3% (cell proliferation; 100 µM, 24 h, 37 °C, serum-containing medium).
Under “hypoxic cytotoxicity ratio”, `O=C(NCCCCCCNc1n[n+]([O-])c2ccccc2[n+]1[O-])C(F)(F)F` is recorded as 1.7 (baseline: normoxic IC50 over hypoxic IC50).
`N#Cc1c(NC(=O)CN2CCOCC2)sc2c1CCC(c1ccccc1)C2` (stereo not drawn) gave a viability of 90.5% (cell growth or viability, LDH; 100 µg/mL, 24 h).
Under cytotoxicity, `COC(=O)ON=C1C(=O)NN(c2ccccc2)C1=O` is recorded as “not toxic” (MTS; 1.6 to 25 µM, 48 h).
`O=C(NCCCCCCCCNc1n[n+]([O-])c2ccccc2[n+]1[O-])C(F)(F)F`: “hypoxic cytotoxicity ratio” 2.2 (baseline: normoxic IC50 over hypoxic IC50).
For `CCCCn1cc(C(=O)O)c(=O)c2cc(F)c(N)c([N+](=O)[O-])c21`, the IC50 was 303 µM (cell growth or viability, SRB).
For `Cc1ccc(C)n1-c1ccc(C(=O)ON2C(=O)CCC2=O)cc1`, cytotoxicity read “not toxic” (MTS; 1.6 to 25 µM, 48 h).

For quick reference, copied from above:
Under cytotoxicity, `COC(=O)ON=C1C(=O)NN(c2ccccc2)C1=O` is recorded as “not toxic” (MTS; 1.6 to 25 µM, 48 h).
